Measured values of several laboratories.
Each numbered part is a random draw from the data of one study; scales do not carry over between parts. Positions count from the first letter of the parent shown.

Series 1 — method: aptamer microarray, sandwich; form: DNA with 2'F-ANA; sample: in vitro; concentration: 200 nM; together with: Cy3 exosite-II aptamer, 400 nM; direction: higher = stronger binding; sequence: GGTTGGTGTGGTTGG
Target: Prothrombin, mature alpha-thrombin (F2, Homo sapiens, UniProt P00734)
Setting: whole 15-mer aptamer, many near background
Modification | mean fluorescence intensity
2'F-ANA at 1 2 4 7 8 9 11 14 | 50.5 a.u.
2'F-ANA at 4 5 7 10 12 13 14 15 | 47.3 a.u.
2'F-ANA at 2 3 7 8 9 12 13 14 | 472 a.u.
2'F-ANA at 1 6 7 9 11 12 13 14 | 69.2 a.u.
2'F-ANA at 2 3 4 5 7 8 9 10 12 13 15 | 64.6 a.u.
2'F-ANA at 6 8 9 11 12 13 14 15 | 178 a.u.
2'F-ANA at 2 3 6 7 8 9 13 | 578 a.u.
2'F-ANA at 1 3 4 5 7 9 11 15 | 58.8 a.u.
2'F-ANA at 4 5 6 8 11 12 15 | 103 a.u.
2'F-ANA at 2 4 5 7 9 11 13 | 55.6 a.u.
2'F-ANA at 1 2 7 8 9 11 12 14 15 | 83.3 a.u.
2'F-ANA at 1 2 4 6 7 13 15 | 76.5 a.u.
2'F-ANA at 1 2 3 6 8 9 10 11 14 15 | 52.5 a.u.
2'F-ANA at 1 3 5 6 7 8 10 13 15 | 52.7 a.u.
2'F-ANA at 2 3 4 6 10 14 | 192 a.u.
2'F-ANA at 2 3 5 7 9 10 11 14 | 68 a.u.
2'F-ANA at 1 2 8 9 11 13 15 | 134 a.u.
2'F-ANA at 2 3 5 8 12 | 259 a.u.

Series 2 — target: CCNB3, cyclin fold, Cln2 fusion (human); method: yeast growth competition, sequencing; sample: yeast; setting: strong parent motif; relative to: not given; direction: higher = stronger binding
Starting sequence: RBL2 docking peptide (human); STTRRRLFVENDS; partner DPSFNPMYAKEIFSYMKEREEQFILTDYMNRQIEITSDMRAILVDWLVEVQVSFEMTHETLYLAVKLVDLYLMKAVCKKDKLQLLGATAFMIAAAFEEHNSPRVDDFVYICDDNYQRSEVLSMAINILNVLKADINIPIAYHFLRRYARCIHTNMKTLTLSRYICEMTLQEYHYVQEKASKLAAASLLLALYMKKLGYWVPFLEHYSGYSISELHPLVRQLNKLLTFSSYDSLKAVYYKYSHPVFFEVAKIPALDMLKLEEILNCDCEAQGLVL
Substitution | normalised enrichment score
STTRRSLFVENDS [R6S] | 1.02
STTRRRLFVENDN [S13N] | 0.853
STTRRRLFVQNDS [E10Q] | 0.524
NTTRRRLFVENDS [S1N] | 1.12
STTRRDLFVENDS [R6D] | 0.488
STTRVRLFVENDS [R5V] | 0.073
STTRRRLQVENDS [F8Q] | 0.45
STTRRRLFQENDS [V9Q] | 0.852
STTRRRVFVENDS [L7V] | 0.127
STTRRRLFVENDQ [S13Q] | 0.595
STTRRRMFVENDS [L7M] | 0.055
STTRSRLFVENDS [R5S] | 0.438
STTRRELFVENDS [R6E] | 0.297
STTRKRLFVENDS [R5K] | 0.506
STTRRRLFVENDV [S13V] | 0.706
STTRRRLFVEHDS [N11H] | 0.833
STTRRRLFVENDI [S13I] | 0.883
STTRRRLRVENDS [F8R] | -0.12
STTRRRLFVENMS [D12M] | 0.689
STTRRRSFVENDS [L7S] | 0.182
STDRRRLFVENDS [T3D] | 0.127

Series 3 — method: protein-binding microarray; form: double-stranded DNA, one strand shown; sample: in vitro; concentration: 2540 nM top; setting: 60-bp whole probe; together with: salmon DNA 0.4 mg/ml; relative to: random background probes; direction: higher = stronger binding; constant ends, left off below: GCCTAGCAC … GTCTTGATTCGCTTGACGCTGCTG
Target: Interferon regulatory factor 3, full length, phosphomimetic (IRF3, Homo sapiens, UniProt Q14653, residues 1-427, S386D/S396D/S398D/S402D/T404D/S405D)
Target sequence (chain): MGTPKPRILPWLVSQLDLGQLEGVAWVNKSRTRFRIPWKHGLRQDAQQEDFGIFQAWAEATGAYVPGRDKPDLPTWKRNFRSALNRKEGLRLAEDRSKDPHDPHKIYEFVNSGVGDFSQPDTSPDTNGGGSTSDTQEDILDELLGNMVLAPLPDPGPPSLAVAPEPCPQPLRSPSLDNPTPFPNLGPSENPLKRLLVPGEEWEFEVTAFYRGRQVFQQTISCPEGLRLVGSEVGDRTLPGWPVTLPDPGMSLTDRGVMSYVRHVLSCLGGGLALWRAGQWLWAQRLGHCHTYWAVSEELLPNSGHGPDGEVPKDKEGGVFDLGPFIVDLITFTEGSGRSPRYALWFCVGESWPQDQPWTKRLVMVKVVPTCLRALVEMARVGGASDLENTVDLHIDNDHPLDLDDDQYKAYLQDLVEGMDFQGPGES
Sequence | fitted relative affinity [z-score]
TTAGCTTTCCTTTTCCTTTAGTGCTAG | 9.24
GACGGACTGGGTATCGGTACGTGCTAG | 0.464
GACAAACTGGGGTATCGAGACGTGCTA | -0.375
TCACTCACCTAGTTTCATACTGTGCTA | 1.41
TTACGTTTCCTTATCCTTTAGTGCTAG | 6.57
ACTCATTTTCGTTTTGTGTCGTGCTAG | 4.07
GACGGATTGCTACTGCTGACGTGCTAG | -0.28
CTTTTATGCTCTTTCTACATGTGCTAG | 3.56
GACGATCTCACTCTCGAGACGTGCTAG | 1.01
GAAGGTTTCCTTCTCCTGACGTGCTAG | 10.4
AATGATTACATATATGTTGGTGTGCTA | 0.121
GACGAGCTGGGGTATCGAGACGTGCTA | -0.85
TTAGATGTCAGTATCGATTAGTGCTAG | 1.38
TTAGGACTGCTTCTCCTCTAGTGCTAG | -0.161
TTAGGACTGCTACTGCTTTAGTGCTAG | -0.704
TTAGGTTCCCTACTGCTTTAGTGCTAG | 3.44
GACGGTATCGACTATCAGGACGTGCTA | 0.877
TTAGGACTCCTACTGCTTTAGTGCTAG | -0.141
TTAGGACTAGGTCTCGGTTAGTGCTAG | -0.414
TTAGGTTGCGACTTTCGGTTAGTGCTA | 2.2
TTAGAACTGAGATTCGATTAGTGCTAG | 0.0618

Series 4 — method: protein binding microarray; form: double-stranded DNA, one strand shown; sample: in vitro; concentration: not given; relative to: not given; direction: higher = stronger binding
Target: Histone acetyltransferase KAT6A, winged helix 2, GST fusion (KAT6A, Homo sapiens, UniProt Q92794, residues 85-181)
Setting: 8-mer, flanks averaged, mean of 2 arrays, mostly near background
Construct (chain): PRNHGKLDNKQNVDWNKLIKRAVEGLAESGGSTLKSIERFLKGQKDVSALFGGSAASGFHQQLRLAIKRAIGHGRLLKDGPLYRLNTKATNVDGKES
Sequence | E-score
GGCGTGAA | 0.117
ATTGCAAG | -0.072
AAGTCCGC | 0.019
AGTAACGA | 0.0025
ATGATGTC | -0.0186
AATGGGAG | -0.15
CAGAACAG | -0.0141
CATTTGAC | -0.0522
CTAACCAG | -0.0247
CGCTCCGA | 0.224
ATAAGAAT | 0.143
CGGATAAA | 0.0971
CCGGTGCC | 0.0591
ATTGCTGG | 0.0567
GAAAAAAA | 0.214
CCGTCCCC | -0.0197
ACGAAACT | 0.0949
TAGTACCA | -0.0288
CGTCCAAC | -0.0269
CGTCGGAA | 0.0316

Series 5 — method: DHFR PCA, deep sequencing; sample: yeast; together with: (+)-ABA 710 µM; relative to: wild-type fitted maximum; direction: higher = stronger binding
Target: ABI1, truncated, D143A, DHFR fusion (Arabidopsis thaliana)
Setting: methotrexate growth selection, single substitutions
Starting sequence: PYL1, truncated, DHFR fusion (Arabidopsis thaliana); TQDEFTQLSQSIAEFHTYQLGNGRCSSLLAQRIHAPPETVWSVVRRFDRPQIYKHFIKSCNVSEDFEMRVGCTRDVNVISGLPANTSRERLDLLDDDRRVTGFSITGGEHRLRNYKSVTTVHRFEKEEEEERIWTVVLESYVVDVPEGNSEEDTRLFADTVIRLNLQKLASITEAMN
Substitution | relative binding score [%]
T106L | 107
E14P | 68
T1G | 102
S171Q | 96.5
R32V | 98.3
E128K | 112
E109R | 98.7
R98V | 104
V161H | 25.5
L94D | 17.6
E125G | 97.9
N22C | 98.4
K58R | 105
A158R | -3.53
T73N | 96.8
F66G | 101

Series 6 — method: competition protein-binding microarray; form: double-stranded DNA, one strand shown; sample: in vitro; concentration: 2 µM; together with: Cbf1 competitor, 0.05 µM; direction: higher = stronger binding; constant ends, left off below: … GTCTTGATTCGCTTGACGCTGCTG
Target: Phosphate system positive regulatory protein PHO4, full length, GST-tagged (PHO4, Saccharomyces cerevisiae, UniProt P07270, residues 1-312)
Setting: whole 60-bp probe, lowest competitor level
Construct (chain): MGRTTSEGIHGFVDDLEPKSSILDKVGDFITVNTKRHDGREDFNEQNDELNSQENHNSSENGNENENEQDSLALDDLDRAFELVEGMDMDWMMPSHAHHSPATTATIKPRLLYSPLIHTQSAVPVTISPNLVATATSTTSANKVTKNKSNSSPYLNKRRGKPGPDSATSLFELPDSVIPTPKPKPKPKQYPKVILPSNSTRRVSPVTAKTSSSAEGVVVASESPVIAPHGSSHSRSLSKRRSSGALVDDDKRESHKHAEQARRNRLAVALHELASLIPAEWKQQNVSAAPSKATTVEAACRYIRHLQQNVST
Sequence | fluorescence intensity
CTTTTCAAGAATGCAAACGTGAGGTTGGCGCGCCCT | 8650 a.u.
AAGTTATTGGTGTTCGTCGTGCCGATTGGAGAATTG | 7330 a.u.
TGGCGCCGCCGCCACCACGCGGCAGCTCTGATTGGA | 9040 a.u.
ACCGGGAAAATCCAACACGTGATGGTCCGACATGGA | 16900 a.u.
ATTTTTGAGTCAGTTTCCGTGACGGTGAAGTGAGCG | 3320 a.u.
CTCTACTATGGCATCCACATGAAAACCAGTCTCAGA | 5080 a.u.
CCCGTCCATTGAGTGCCCGTGCCGAATCAAGCTAAA | 9350 a.u.
GCATCCACAACCGCTCTCGTGGAACCAAACGAAGAT | 5870 a.u.
TGAGAAGAGAGGCCACACATGCTGTTGGGGTTCATG | 8750 a.u.
TTCTCGGACTTAAAGCATGTGCTCACCATACTACCA | 12600 a.u.
CAAGCGACTTACACAGACATGACAATTGCTCCAATT | 3940 a.u.
CGGGGTTAAGTTTTTCACGTGCCCTGCTTGCAGCAG | 12200 a.u.
AAATTACTAAGTTGTACGGTGGGTGACGCCGTATGA | 4360 a.u.
CTATCTAGTACCCGCCCCGTGGCAAAAAAAGAAGAC | 12300 a.u.
CGATACCGTAACCACCATGTGGGCAAGTACCGTATT | 11300 a.u.
TTCTTGTAGTCAACGTACATGATGTTGTCGTCCCAA | 6200 a.u.
CGGGGTTAAGTTTTTCACGTGCCGTGCTTTCAGCAG | 12300 a.u.
AGGAATGTTAATTCGCTCGTGCGGACTAATTTTTCC | 9540 a.u.
TATACTTTCCCTACGCACATGAAACGCATACCCCAA | 7410 a.u.
GGAGCCAACAGCTCAAACGTGCCAGGGACTGGTTAC | 11400 a.u.
CTTATCCGAAGTTGAAATGTGACGGCTGCAATGGAT | 5270 a.u.
CCATGGATGAAGTGTATTATAAATTTGGGTTAGGCA | 3480 a.u.
GCTGCTCTGTACTGTCACATGATTCTTTCCCAACTC | 6450 a.u.
CCATTCATGTCGAGTCACGTGGTGAATACAGATAAT | 19300 a.u.
GGCTATTGAATCTCCAACGTGACGGTCGGTGAGAAT | 11900 a.u.

Some of these lines once more (series 6):
Sequence | fluorescence intensity
TATACTTTCCCTACGCACATGAAACGCATACCCCAA | 7410 a.u.
ATTTTTGAGTCAGTTTCCGTGACGGTGAAGTGAGCG | 3320 a.u.
ACCGGGAAAATCCAACACGTGATGGTCCGACATGGA | 16900 a.u.
GCTGCTCTGTACTGTCACATGATTCTTTCCCAACTC | 6450 a.u.
TGAGAAGAGAGGCCACACATGCTGTTGGGGTTCATG | 8750 a.u.
CCATGGATGAAGTGTATTATAAATTTGGGTTAGGCA | 3480 a.u.
GCATCCACAACCGCTCTCGTGGAACCAAACGAAGAT | 5870 a.u.
CCCGTCCATTGAGTGCCCGTGCCGAATCAAGCTAAA | 9350 a.u.
CAAGCGACTTACACAGACATGACAATTGCTCCAATT | 3940 a.u.
TTCTTGTAGTCAACGTACATGATGTTGTCGTCCCAA | 6200 a.u.
AAATTACTAAGTTGTACGGTGGGTGACGCCGTATGA | 4360 a.u.
GGAGCCAACAGCTCAAACGTGCCAGGGACTGGTTAC | 11400 a.u.
AAGTTATTGGTGTTCGTCGTGCCGATTGGAGAATTG | 7330 a.u.
CGGGGTTAAGTTTTTCACGTGCCGTGCTTTCAGCAG | 12300 a.u.
